Measured values of several laboratories.
A part holds a random share of what one study measured.

Set 1
Target: RNA binding protein fox-1 homolog 2, RRM domain, GST-SBP tag (RBFOX2, Homo sapiens, UniProt O43251-10, residues 100-194)
Method: RNA Bind-n-Seq
Form: RNA
Medium: in vitro
Concentration: 365 nM
Setting: natural RNA segment, single round, ends assumed
Reference: no-protein control
Direction: higher = stronger binding
All sequences stand within: GGGAGUUCUACAGUCCGACGAUC … UGGAAUUCUCGGGUGCCAA
Residues (chain): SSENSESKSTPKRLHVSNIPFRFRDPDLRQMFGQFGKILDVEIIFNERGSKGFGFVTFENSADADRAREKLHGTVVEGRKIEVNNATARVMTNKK
`GUGUCUAUAGGUACAGCCCGCUCUGGCUGCUGCCAGGUGGGCCCCUGCCAGGGGUCCUCACCCCUGUCCACCCUGUGCCUGGCUGUCCCUGCACCCAGAUACAGCAACAU`: “RBNS enrichment (R)” 0.186.
`ACCCUAUGUACACAGCCAAAAGCCGCACUGCCUGCGCCCCUGGAACCUGGGUCCGGCCUUCCUCAGCCCCUGGCCCCUCCAAGGUACCUAUAAGGGACAAGAGAAGGCCU`: “RBNS enrichment (R)” 0.365.
`UACUUUCAGGUCUGGAGUCUUCAGAUCUCUUCCUUGAGGCGGCCAGGGAGAGGAAGUCUCGCUCUCUCUCCUCACAGCCCUUGGCCCCAGCAUUUAUUCUUGGGUCCUUU` — result for “RBNS enrichment (R)”: 0.417.
Under “RBNS enrichment (R)”, `AAGAAGAUAAUGCUUAUUCUGUUAAUGCACACUUUUAAGUUUUGAUGAUUUUUUACAGUGUUUUAGACCUUGAAUAGCUAGUGGCUUUUGCUAAAAACUUUUGGCAACAA` is recorded as 0.628.
For `AUUCUUUUAUAUGUUUUUAAAAAAAAGCUUAAGAAACAUUGCUUUAAAAAGGAAGGAAAAAAAAUACAGCAAACCAUUGUUAAAGUAGAAGAGUUUUUAGGUUGAGAAAU`, “RBNS enrichment (R)” read 0.755.
`GGCUCUCCUCUUUUGAGCAUGUGUUAGCAUUUUUAUUUUAUACUCAUCCAGUGAACUCUGCUCUUCCAAGUGUGUUCAUGUAUGUGCUAGAUAUAUUAGCACAGCCUGCC`: “RBNS enrichment (R)” 6.17.
`UUAUCCCAGGCAUUCUUAGAUGGAAAACAAUACUUUUGUUUUUUCUUCUAAAUUGAAGCUUGUUAAAAUAAUCACUGUAGUUAUGUGGUACACUAGUAUUUCUUAAAGCA`: “RBNS enrichment (R)” 0.963.
Under “RBNS enrichment (R)”, `ACAGUUUCUAAAUAUAUGAUUUGUUGUUGAGAGAAAACAGUGAUUGUUAAUUAUGGCUUUUACUUCAUUUUAGAAAAGCACUAGAAAUUCUAAAUUUACUUUUCCUCUAG` is recorded as 1.04.

Set 2
Target: Prothrombin, mature alpha-thrombin (F2, Homo sapiens, UniProt P00734)
Method: aptamer microarray, sandwich
Form: DNA with 2'F-ANA
Medium: in vitro
Concentration: 200 nM
Setting: whole 15-mer aptamer, many near background
Together with: Cy3 exosite-II aptamer, 400 nM
Direction: higher = stronger binding
Sequence: GGTTGGTGTGGTTGG
Under “mean fluorescence intensity”, `2'F-ANA at 2 4 5 6 8 12 13 14` is recorded as 46 a.u.
`2'F-ANA at 3 7 10 11 13 14` — result for “mean fluorescence intensity”: 375 a.u.
`2'F-ANA at 2 4 5 6 7 9 11 12 15`: “mean fluorescence intensity” 95.6 a.u.
`2'F-ANA at 1 2 4 7 8 9 13 14 15`: “mean fluorescence intensity” 47.3 a.u.
Under “mean fluorescence intensity”, `2'F-ANA at 1 2 4 5 10 11` is recorded as 112 a.u.
Under “mean fluorescence intensity”, `2'F-ANA at 1 3 5 8 9 11 13 14` is recorded as 43.1 a.u.
Under “mean fluorescence intensity”, `2'F-ANA at 1 3 6 8 12 14 15` is recorded as 113 a.u.
`2'F-ANA at 1 2 6 9 11`: “mean fluorescence intensity” 116 a.u.
`2'F-ANA at 2 3 5 11 14 15`: “mean fluorescence intensity” 123 a.u.
`2'F-ANA at 5 6 7 11 12`: “mean fluorescence intensity” 132 a.u.
`2'F-ANA at 1 2 3 7 8 9 10 12 14 15` — result for “mean fluorescence intensity”: 62.4 a.u.
`2'F-ANA at 2 3 7 8 11 12 13 15` — result for “mean fluorescence intensity”: 866 a.u.
`2'F-ANA at 3 4 5 7 8 11 13 14 15` — result for “mean fluorescence intensity”: 53.7 a.u.
Under “mean fluorescence intensity”, `2'F-ANA at 1 5 8 9 10 13 15` is recorded as 43.5 a.u.
`2'F-ANA at 1 3 5 11 13 15` — result for “mean fluorescence intensity”: 86.4 a.u.
For `2'F-ANA at 1 4 5 7 9 10 11 13`, “mean fluorescence intensity” read 52.6 a.u.
For `2'F-ANA at 2 6 7 10 11`, “mean fluorescence intensity” read 109 a.u.
For `2'F-ANA at 1 2 3 6 9 10 11 14 15`, “mean fluorescence intensity” read 54.4 a.u.
For `2'F-ANA at 1 4 5 6 7 8 9 10 13 15`, “mean fluorescence intensity” read 49.2 a.u.
`2'F-ANA at 1 3 6 9 10 11 12 14 15` — result for “mean fluorescence intensity”: 81.5 a.u.
Under “mean fluorescence intensity”, `2'F-ANA at 1 2 3 9 10 12 13 14` is recorded as 54.4 a.u.
Under “mean fluorescence intensity”, `2'F-ANA at 1 2 5 7 8 12 13 14 15` is recorded as 47.9 a.u.
For `2'F-ANA at 2 3 4 6 10 11 14 15`, “mean fluorescence intensity” read 170 a.u.
Under “mean fluorescence intensity”, `2'F-ANA at 3 9 10 11 14` is recorded as 397 a.u.
For `2'F-ANA at 1 3 8 9 10 11 12 13 14`, “mean fluorescence intensity” read 60.9 a.u.

Set 3
Target: Histone acetyltransferase KAT6A, winged helix 2, GST fusion (KAT6A, Homo sapiens, UniProt Q92794, residues 85-181)
Method: protein binding microarray
Form: double-stranded DNA, one strand shown
Medium: in vitro
Concentration: not given
Setting: 8-mer, flanks averaged, mean of 2 arrays, mostly near background
Reference: not given
Direction: higher = stronger binding
Construct (chain): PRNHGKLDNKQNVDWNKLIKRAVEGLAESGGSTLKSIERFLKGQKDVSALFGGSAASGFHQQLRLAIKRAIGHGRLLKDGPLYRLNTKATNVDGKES
`ATACTGAC` gave an E-score of 0.0351.
`AGATATTA` gave an E-score of -0.099.
For `CGAAAGAG`, the E-score was -0.0141.
`TACTGCCA` has an E-score of -0.0263.
`CCTAGCGC` has an E-score of 0.0577.
With `CCTTTTTA` the E-score was -0.0089.
With `AGGACAGA` the E-score was 0.072.
`CATGGGCC` gave an E-score of 0.0141.
With `AACCATTG` the E-score was -0.0056.
For `CGCCAATA`, the E-score was 0.0465.
With `GGGAATGA` the E-score was -0.0543.
`CCAAAAAG` gave an E-score of 0.134.
`CGCATCGC` has an E-score of 0.211.
`CCTGACCG` has an E-score of 0.000165.
`AGTCAATC` has an E-score of -0.0184.
For `AATGACTG`, the E-score was -0.131.
`CACACCCA` gave an E-score of -0.021.
The E-score of `CACGCAAA` is reported as 0.0003.
With `ACGGTGCT` the E-score was 0.0149.
For `GCATAGGC`, the E-score was -0.0873.
`AACCTCGC` gave an E-score of -0.0347.
For `AAAGCACG`, the E-score was -0.00827.
`AGACGGCT` has an E-score of -0.12.
For `TAAGTCCA`, the E-score was -0.0377.
`CCTCGGTC` gave an E-score of -0.114.

Set 4
Target: Hepatocyte nuclear factor 3-alpha (Foxa1, Mus musculus, UniProt P35582, residues 1-468, full length assumed)
Sequence of UniProt P35582 (whole entry, looked up): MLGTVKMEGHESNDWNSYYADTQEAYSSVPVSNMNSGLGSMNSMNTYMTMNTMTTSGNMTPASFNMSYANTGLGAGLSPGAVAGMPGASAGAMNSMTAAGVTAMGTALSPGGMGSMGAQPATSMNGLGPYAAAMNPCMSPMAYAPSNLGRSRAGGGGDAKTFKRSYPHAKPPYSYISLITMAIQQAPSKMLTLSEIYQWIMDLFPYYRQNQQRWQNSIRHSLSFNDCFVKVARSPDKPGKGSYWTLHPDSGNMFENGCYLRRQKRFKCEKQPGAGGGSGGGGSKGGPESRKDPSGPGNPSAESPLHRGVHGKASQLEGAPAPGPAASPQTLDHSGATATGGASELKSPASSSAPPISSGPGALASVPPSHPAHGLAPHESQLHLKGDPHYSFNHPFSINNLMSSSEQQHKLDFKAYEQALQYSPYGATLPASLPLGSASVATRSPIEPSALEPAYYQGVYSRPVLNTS
Method: EMSA with sequencing
Form: double-stranded DNA, one strand shown
Medium: in vitro
Concentration: 10 and 20 nM
Setting: whole designed probe, mean of two concentrations, ends assumed
Reference: negative control set to 0
Direction: higher = stronger binding
All sequences stand within: GTGAGCGGTGCCCATTGATGGGGAAC … TTTCACTGGGATCGTGGGGAC
For `TAAAATGAAAAATAGATAACATAAAAAGGAAATAATTAAAACAAAGCCTAAGGTGATAAGAAGAAACTAAGTAAATAAGTAATATAAGAACAAAGTAAACATGAGATAAAAGAAAAGTCTTATGAAAGAGTAAGAAAAGATAAATCAACTAAGAACAATTAACTGTGAGACTGTAAAACAAAAGGACTAAAAG`, “normalised bound fraction” read 0.527 ratio.
Under “normalised bound fraction”, `TACTGACTTTATAAGATTTATTTAGTTCCTTTTTTTGACAAAGGTAAAACTTCTTGGACGATTATTAAGGTGCCAGATAAATAGAAGGGGTTATATTTACACAATTGGCAATGTCTAGCATATAGTAGATCCCCAGTAGGAGGTTGCTTTTGTAACTGTTATTATAATGATCACGAACGCCATCATTCTCACC` is recorded as 0.328 ratio.
`CCCGGAGGACCCGACCGGAGAGGGCGAGAGGAGGAGGAGCCCGGGTGGCGGGAAGCGAGCCCAGGTTCCCGCGGCCTTGCGAGGGCACGCAGGGCAAACAGTGCTTTATCTTTCGCAGCGGCGATGAGCTGGTGACTTTTGGGGGTCATCCTGAGGGACATAGACGAAACTGGTTGGGAGGTAGTTAATTGCT` — result for “normalised bound fraction”: 0.0224 ratio.
For `TTTGCTCCCCACACCCATTGCCTGCCACAAAAGGGTATTTTGCCAACTTCAGTATGTAAACATTTAGGGATATAGATGACGTGATCACATGTCTGTTTACATAGTTAATAATTTACGCATACACATTTAAACTTACTCATATAAAGTCATACACAATTTAGAATCATTACTTTTTGCTATTCTTACATTTCAG`, “normalised bound fraction” read 0.509 ratio.
`ATGTGCTAAAAATACAAGACTTGCTTACGCAGAGAGCCGGGAGCTATGTTCCAGTGAGGGTGGAAACAAAAGCCTCAGTATAAGACTGTCAGGTGTTTACACTTGCTCATGTGGCAACACGAGGAAGGGTGTGGTTTGCTGGACTCCACATGCTGAGGCTCAAAGTAGAAATCACTGATCTTATGTCACATAT`: “normalised bound fraction” 0.383 ratio.

Excerpt of the above (set 2):
For `2'F-ANA at 2 3 4 6 10 11 14 15`, “mean fluorescence intensity” read 170 a.u.
`2'F-ANA at 1 2 3 7 8 9 10 12 14 15` — result for “mean fluorescence intensity”: 62.4 a.u.
`2'F-ANA at 3 7 10 11 13 14` — result for “mean fluorescence intensity”: 375 a.u.
Under “mean fluorescence intensity”, `2'F-ANA at 1 3 5 8 9 11 13 14` is recorded as 43.1 a.u.
`2'F-ANA at 3 4 5 7 8 11 13 14 15` — result for “mean fluorescence intensity”: 53.7 a.u.
